Published values collected from several papers.
Compare with care: the assays were run in different laboratories. “And” joins repeats or separate records; there may be more than shown. pEC50: −log10 of the molar value.
Cell line: LOX IMVI

CCOc1ccc(-c2nc3cc(-c4nc5cc(N6CCN(C)CC6)ccc5[nH]4)ccc3[nH]2)cc1OCC gave a growth percent of -74.5% (cell growth, NCI-60 SRB; 10 µM, 48 h).
The growth percent of O=C(Nc1nnc2[nH]c(=S)[nH]c(-c3ccc(Cl)cc3)c1-2)c1ccccc1 is reported as 104% (NCI60 SRB; 10 µM).
The growth percent of CCCCN1CCN(c2ccc3nc(-c4ccc5nc(-c6cc(OC)ccc6OC)[nH]c5c4)[nH]c3c2)CC1 is reported as 96.5% (cell growth, NCI-60 SRB; 10 µM, 48 h).
For S=C([S][Au-][P+](CCCCCC[P+]([Au-][S]C(=S)n1cccn1)(c1ccccc1)c1ccccc1)(c1ccccc1)c1ccccc1)n1cccn1, the log10 TGI was > -4 (cell growth, NCI-60 screen; melanoma).
Cc1cc(=O)[nH]c(=O)n1Cc1cn(-c2cc3ccccc3oc2=O)nn1 gave a growth of 95.7% (NCI60 single dose; 10 µM).
The growth percent of Cc1cc(-c2ccccc2)n(-c2nc(-c3ccc(Cl)cc3)c3c(NC(=O)c4ccccc4)nnc-3[nH]2)n1 is reported as 99.2% (NCI60 SRB; 10 µM).
The TGI of CC(=O)O[C@H]1C(=O)[C@@]2(C)[C@H]([C@H](OC(=O)c3ccccc3)[C@]3(O)C[C@H](OC(=O)[C@H](O)[C@@H](NC(=O)c4ccccc4)c4ccccc4)C(C)=C1C3(C)C)[C@]1(OC(C)=O)CO[C@@H]1C[C@@H]2O is reported as 1000 nM (sulforhodamine B).
The GI50 of O=C(/C=C/C=C/C=C/C1CCCCC1)NC1=C[C@@](O)(/C=C/C=C/C=C/C(=O)NC2=C(O)CCC2=O)[C@@H]2O[C@@H]2C1=O is reported as 11600 nM (CellTiter-Glo; 78 h).
With O=c1ccn(Cc2cn(-c3c4ccccc4nc4ccccc34)nn2)c(=O)[nH]1 the growth was 74.2% (NCI60 single dose; 10 µM).
With CCn1cc(-c2cc(Cn3ccoc3=N)cc3c2CCN([C@@H](C)c2cc(OC)ccn2)C3=O)c(C(F)(F)F)n1 the pEC50 was 8.24 (cell growth; 120 h).
CCCN1CCN(c2ccc3[nH]c(-c4ccc5[nH]c(-c6ccc(C(F)(F)F)cc6)nc5c4)nc3c2)CC1 has a growth percent of -92.9% (cell growth, NCI-60 SRB; 10 µM, 48 h).
NNc1nc(-c2ccc(Cl)cc2)c2c(NC(=O)c3ccccc3)nnc-2[nH]1 has a growth percent of 114% (NCI60 SRB; 10 µM).
CCn1cc(-c2cc(Cn3ccnc3)cc3c2CCN([C@H](c2cc(OC)ccn2)C2CC2)C3=O)c(C(F)(F)F)n1 gave a pEC50 of < 4.52 (cell growth; 120 h).
CCCCN1CCN(c2ccc3[nH]c(-c4ccc5[nH]c(-c6ccc(C(F)(F)F)cc6)nc5c4)nc3c2)CC1 gave a growth percent of -89.5% (cell growth, NCI-60 SRB; 10 µM, 48 h).
For C#C[C@@]1(O)[C@@H](CO)O[C@@H](n2ccc3c(N)ncnc32)[C@@H]1O, the TGI was 2050 nM (cell growth, SRB).
With CCOC(=O)CSc1nc(-c2ccc(Cl)cc2)c2c(NC(=O)c3ccccc3)nnc-2[nH]1 the growth percent was 86.9% (NCI60 SRB; 10 µM).
CN1CCN(c2ccc3[nH]c(-c4ccc5[nH]c(-c6ccc(C(F)(F)F)cc6)nc5c4)nc3c2)CC1 has a growth percent of -85.8% (cell growth, NCI-60 SRB; 10 µM, 48 h).
The growth of CCCC(CCC)C(=O)OCc1cn(-c2c3ccccc3nc3ccccc23)nn1 is reported as 92.6% (NCI60 single dose; 10 µM).
For Cc1cc(=O)[nH]n1-c1nc(-c2ccc(Cl)cc2)c2c(NC(=O)c3ccccc3)nnc-2[nH]1, the growth percent was 86.8% (NCI60 SRB; 10 µM).
CCN(CC)c1ccc(C=NNC(=O)CSc2nc3ccccc3c(=O)n2Cc2ccc(S(N)(=O)=O)cc2)c(O)c1 has a TGI of 10500 nM (cell growth; NCI five-dose screen).
For CCCN1CCN(c2ccc3[nH]c(-c4ccc5[nH]c(-c6ccc(OCC)c(OCC)c6)nc5c4)nc3c2)CC1, the growth percent was -84.3% (cell growth, NCI-60 SRB; 10 µM, 48 h).
The TGI of C#C[C@@]1(O)[C@@H](CO)O[C@@H](n2cc(Cl)c3c(N)ncnc32)[C@@H]1O is reported as 226 nM and 284 nM (cell growth, SRB).

Excerpt of the above:
The TGI of CC(=O)O[C@H]1C(=O)[C@@]2(C)[C@H]([C@H](OC(=O)c3ccccc3)[C@]3(O)C[C@H](OC(=O)[C@H](O)[C@@H](NC(=O)c4ccccc4)c4ccccc4)C(C)=C1C3(C)C)[C@]1(OC(C)=O)CO[C@@H]1C[C@@H]2O is reported as 1000 nM (sulforhodamine B).
The GI50 of O=C(/C=C/C=C/C=C/C1CCCCC1)NC1=C[C@@](O)(/C=C/C=C/C=C/C(=O)NC2=C(O)CCC2=O)[C@@H]2O[C@@H]2C1=O is reported as 11600 nM (CellTiter-Glo; 78 h).
